Results collected from several papers.
A part holds a random share of what one study measured.

Set 1
Target: Sal-like protein 4, full length isoform A (SALL4, Homo sapiens, UniProt Q9UJQ4, residues 1-1053)
Sequence of UniProt Q9UJQ4 (whole entry, looked up): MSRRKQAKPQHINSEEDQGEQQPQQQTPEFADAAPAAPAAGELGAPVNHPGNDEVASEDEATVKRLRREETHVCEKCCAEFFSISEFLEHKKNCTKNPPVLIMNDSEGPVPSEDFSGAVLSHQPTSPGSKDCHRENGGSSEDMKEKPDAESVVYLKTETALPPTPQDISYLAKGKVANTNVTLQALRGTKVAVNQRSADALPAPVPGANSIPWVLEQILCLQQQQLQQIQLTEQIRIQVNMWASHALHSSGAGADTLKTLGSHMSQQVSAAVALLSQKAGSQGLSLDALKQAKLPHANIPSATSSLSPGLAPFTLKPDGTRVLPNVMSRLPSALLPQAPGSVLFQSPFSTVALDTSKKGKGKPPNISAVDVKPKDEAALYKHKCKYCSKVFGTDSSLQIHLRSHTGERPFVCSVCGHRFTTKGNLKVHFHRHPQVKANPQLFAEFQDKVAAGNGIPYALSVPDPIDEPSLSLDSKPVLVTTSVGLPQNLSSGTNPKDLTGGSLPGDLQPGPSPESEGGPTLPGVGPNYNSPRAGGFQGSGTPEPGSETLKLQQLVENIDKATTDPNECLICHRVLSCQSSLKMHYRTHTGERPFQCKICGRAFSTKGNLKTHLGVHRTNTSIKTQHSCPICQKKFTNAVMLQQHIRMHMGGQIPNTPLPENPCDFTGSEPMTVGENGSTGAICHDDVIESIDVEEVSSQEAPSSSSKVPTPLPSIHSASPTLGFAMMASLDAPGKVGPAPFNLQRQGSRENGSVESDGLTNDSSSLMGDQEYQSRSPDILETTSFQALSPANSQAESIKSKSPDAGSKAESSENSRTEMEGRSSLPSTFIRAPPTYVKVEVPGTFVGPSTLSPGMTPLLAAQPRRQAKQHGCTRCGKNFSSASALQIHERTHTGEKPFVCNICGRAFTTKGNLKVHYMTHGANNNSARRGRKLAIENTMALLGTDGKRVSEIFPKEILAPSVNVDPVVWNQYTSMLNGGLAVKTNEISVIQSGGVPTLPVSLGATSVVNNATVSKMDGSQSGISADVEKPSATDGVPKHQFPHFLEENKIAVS
Method: universal PBM
Form: double-stranded DNA, one strand shown
Medium: in vitro
Concentration: 600 nM
Notes: 8-mer, flanks averaged, mean of replicates
Direction: higher = stronger binding
`CGTGGGGA` gave an E-score of -0.173.
The E-score of `CCGACCAG` is reported as -0.311.
`CATGAAAA` has an E-score of 0.241.
With `ACCGCGGT` the E-score was -0.247.
`GAGGCTAA` gave an E-score of 0.0101.
For `ACTGTGCA`, the E-score was -0.0392.
With `GCCTTCTA` the E-score was -0.0439.
The E-score of `CTGTAGCC` is reported as -0.165.
`AATACGAC` gave an E-score of 0.128.
`GATTGCCC` has an E-score of -0.158.
With `GATTCTCA` the E-score was 0.101.
With `AAGCCGCC` the E-score was -0.296.
With `CGTTGTCC` the E-score was -0.0392.
`ATCGTTCC` gave an E-score of -0.194.
`AACTACGG` has an E-score of -0.15.
`GCGGCAAA` gave an E-score of -0.173.
`ACAGTAAT` gave an E-score of 0.246.
`AGAAGGTA` gave an E-score of 0.17.
For `ATTTCTGC`, the E-score was 0.274.
For `AATGGCAA`, the E-score was 0.208.
The E-score of `ACTGGCTG` is reported as -0.301.
`ACGTGACC` has an E-score of -0.176.
With `GAGAGGAA` the E-score was -0.043.
`AGTATCCA` gave an E-score of 0.0105.
The E-score of `GATTCAGC` is reported as -0.126.

Set 2
Target: Prothrombin, mature alpha-thrombin (F2, Homo sapiens, UniProt P00734)
Method: aptamer microarray, sandwich
Form: DNA with 2'F-ANA
Medium: in vitro
Concentration: 200 nM
Notes: whole 15-mer aptamer, many near background
Together with: Cy3 exosite-II aptamer, 400 nM
Direction: higher = stronger binding
Sequence: GGTTGGTGTGGTTGG
Under “mean fluorescence intensity”, `2'F-ANA at 2 3 5 8 9 12 14` is recorded as 57.9 a.u.
`2'F-ANA at 1 4 5 7 8 9 10 11 13`: “mean fluorescence intensity” 47.5 a.u.
Under “mean fluorescence intensity”, `2'F-ANA at 1 9 10 11 13` is recorded as 51.8 a.u.
`2'F-ANA at 1 3 4 8 9 10 13`: “mean fluorescence intensity” 55 a.u.
Under “mean fluorescence intensity”, `2'F-ANA at 1 4 6 7 9 12` is recorded as 217 a.u.
`2'F-ANA at 1 2 3 4 5 7 8 9 11 12 13 14` — result for “mean fluorescence intensity”: 53.6 a.u.
For `2'F-ANA at 2 7 8 9 12 13`, “mean fluorescence intensity” read 767 a.u.
`2'F-ANA at 2 4 7 8 9 10 12` — result for “mean fluorescence intensity”: 138 a.u.
`2'F-ANA at 1 2 4 7 9 11 12` — result for “mean fluorescence intensity”: 200 a.u.
`2'F-ANA at 1 4 5 6 8 10 11 15`: “mean fluorescence intensity” 54.3 a.u.
`2'F-ANA at 2 3 4 5 7 8 9 10 11 13 14 15`: “mean fluorescence intensity” 48.4 a.u.
`2'F-ANA at 1 2 3 4 6 7 8 12 13 14 15`: “mean fluorescence intensity” 99.2 a.u.
`2'F-ANA at 1 4 5 6 7 8 9 12 14 15`: “mean fluorescence intensity” 67.7 a.u.
`2'F-ANA at 6 7 8 11 14 15` — result for “mean fluorescence intensity”: 189 a.u.
For `2'F-ANA at 2 3 4 5 7 8 10 11 13 15`, “mean fluorescence intensity” read 52.4 a.u.
Under “mean fluorescence intensity”, `2'F-ANA at 1 4 7 8 12 14` is recorded as 64.2 a.u.
`2'F-ANA at 1 6 7 10 11 13` — result for “mean fluorescence intensity”: 50.1 a.u.
`2'F-ANA at 1 2 6 7 13 14`: “mean fluorescence intensity” 48.8 a.u.
For `2'F-ANA at 2 5 6 7 8 9 10 11 12 15`, “mean fluorescence intensity” read 75.4 a.u.
For `2'F-ANA at 4 8 9 11 12 13 14`, “mean fluorescence intensity” read 91.5 a.u.
`2'F-ANA at 2 3 4 6 8 9 13 14` — result for “mean fluorescence intensity”: 211 a.u.
For `2'F-ANA at 2 8 12 13 15`, “mean fluorescence intensity” read 618 a.u.
`2'F-ANA at 2 3 5 6 9 10 12 14` — result for “mean fluorescence intensity”: 48.8 a.u.
For `2'F-ANA at 1 10`, “mean fluorescence intensity” read 82.1 a.u.
For `2'F-ANA at 1 7 11 15`, “mean fluorescence intensity” read 176 a.u.

Set 3
Target: RNA binding protein fox-1 homolog 2, RRM domain, GST-SBP tag (RBFOX2, Homo sapiens, UniProt O43251-10, residues 100-194)
Method: RNA Bind-n-Seq
Form: RNA
Medium: in vitro
Concentration: 365 nM
Notes: natural RNA segment, single round, ends assumed
Relative to: no-protein control
Direction: higher = stronger binding
Target sequence (chain): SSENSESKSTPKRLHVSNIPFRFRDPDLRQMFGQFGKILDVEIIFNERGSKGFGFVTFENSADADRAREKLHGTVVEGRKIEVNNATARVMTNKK
`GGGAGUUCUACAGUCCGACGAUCCCUCAGAUCAGCCCCUUAAAAUGAGUUCUAGAGCAGGUCUUCUGUUCCAGAAGGGGAGAAGCAUAGAGGGCCUGUGAGCUCACGUGUGUUCUUUGUCAUAGGGGUGAAAAUGGAAUUCUCGGGUGCCAA`: “RBNS enrichment (R)” 0.837.
For `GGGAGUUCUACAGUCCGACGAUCGGUGUUAUUUGCAUGUGUGGGUUUCUCACAAGGCUCCCUCCCUUCCUCAGAAGGUUCAUCACGGAAUUUCCUGACAUGCACUGUAGAUGCUACAAACAUGUCUACCCAGGUGGAAUUCUCGGGUGCCAA`, “RBNS enrichment (R)” read 24.2.
`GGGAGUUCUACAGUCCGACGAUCUGCCCUGUGCAUGAGGUCCCCUGAAGCCGCAAUACAUGACCACCCUUCUACUACUUGCUAUUACCUCCUUGUAUGAGAAAUGGAUUAAACUUCUAUGCCUAUGGUUGGUCUGGAAUUCUCGGGUGCCAA`: “RBNS enrichment (R)” 3.55.
`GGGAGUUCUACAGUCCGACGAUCUGCUGCUCAUGAAGAAGUGCACAAGGCACAAAUGUGUACACUUCCCAUGGGACCACAGACCCAGCUCAGCUCUGUUGAAGACCAAGCACAAAGGCCUUGAAGAGUGGACAUGGAAUUCUCGGGUGCCAA` — result for “RBNS enrichment (R)”: 0.471.
Under “RBNS enrichment (R)”, `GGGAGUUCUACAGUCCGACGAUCACCCACCAGCACCCCAGCCCUCCAGGGUCAUCUCAGCACCCAGGCCUCUCCCCAUGGCUGGGGCAGCCCCGCCCCCUCCCUGGGUGCAUCUGCCCUCUGAGUUCUUUCUGUGGAAUUCUCGGGUGCCAA` is recorded as 0.482.
`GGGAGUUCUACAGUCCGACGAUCAUCCCCAGGUAGGGGGACGUUGGUUAUAUUCUGUUAGAGGGGGACGGUCGUAUUUUCCUCCCUACCCGCCAAGUCAUCCUUUCUACUGCUUUUGAGGCCCUCCCUCAGCUUGGAAUUCUCGGGUGCCAA` — result for “RBNS enrichment (R)”: 0.376.
For `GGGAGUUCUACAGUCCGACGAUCAGCUGCCUCUUCAGUGCAAAGAUGAAAAGGAACAUGCUGCUGACGGCCCCCAGCACCAAAGCUUAGCCAAGGCAGAGGCGGAUGCCUCUGGAAAUCUAACCAAAGAGUCCUGGAAUUCUCGGGUGCCAA`, “RBNS enrichment (R)” read 0.238.
`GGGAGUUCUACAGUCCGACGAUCGAUAUAUGACUCCUUUGGGCUACAUUUCAUAUUGAUCAAUUUCUAGGUAUUUUUCACUGGCCCAAAGUAUUGCAUUCCCUUAACAGCAAGCACAAGUUCUCUAUAUCACUUGGAAUUCUCGGGUGCCAA` — result for “RBNS enrichment (R)”: 0.753.
Under “RBNS enrichment (R)”, `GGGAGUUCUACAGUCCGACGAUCCAGGCCACUCUAGAAGCCGAGCCGUCACACCUCAGGCGUGUGCGGGGCGGGGACGGGGGGUCUCCUGGUUACAUUUUGGAUUAAACCUGUUUCCCGGUUAUGUGUAGGGAUGGAAUUCUCGGGUGCCAA` is recorded as 1.06.
`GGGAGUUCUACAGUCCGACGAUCCCUAAUCCAGGAGUGCCCCCUCACUUGUCACCGAGUCUCCUCUAUUGCCUGCCUCUGCUGUGAAUUAACUUGUUCUGUGUAUUAAACUGGGCCUGACCCCUCUGCCCACGUGGAAUUCUCGGGUGCCAA`: “RBNS enrichment (R)” 1.03.
`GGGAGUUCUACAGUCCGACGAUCUUUUUGCAAUAAUGCAGUAUGGUACAUUUUUCAAAUUUGAAUAAAGAAUACUUGAACUUGUUGUUGAUCACUUGUCCUAGAACAUCACCGACUGAUUCUAGAAAGACUAUUGGAAUUCUCGGGUGCCAA`: “RBNS enrichment (R)” 0.282.
`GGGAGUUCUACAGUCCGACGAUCUCUACAUGUCUGCUUGAGAUAUUUCCUCAGCCUGAAAGUUUCCCCAACCAUCUGCCAGAGAACUCCUAUGCAUCCCUUAGAACCCUGCUCAGACACCAUUACUUUUGUGAUGGAAUUCUCGGGUGCCAA` — result for “RBNS enrichment (R)”: 20.1.

Set 4
Target: Fragile X messenger ribonucleoprotein 1, C-terminal low-complexity region (Fmr1, Mus musculus, UniProt P35922)
Method: RNA Bind-n-Seq
Form: RNA
Medium: in vitro
Concentration: 200 nM
Notes: whole 134-nt RNA, ends assumed
Together with: 150 mM KCl
Relative to: input library
Direction: higher = stronger binding
`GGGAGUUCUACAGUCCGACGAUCUCCUGUGCUACACAUCGUAUGUACCGAAUCGGGGUUUUUUUGGGGAAAAAGGGGAGGGGAAAGUAUUAUGUUACGCCGUUCGGAUCUGCAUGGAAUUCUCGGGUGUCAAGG` gave a log2 enrichment of 0.754.
For `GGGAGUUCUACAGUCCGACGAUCUCCUGUGCUACACAUCGUAUGUACCGAAUCAAAUUUUUAAACCCCCAAACCCCCCCAAAAAAGUAUUAUGUUACGCCGUUCGGAUCUGCAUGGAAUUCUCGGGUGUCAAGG`, the log2 enrichment was 0.00422.
For `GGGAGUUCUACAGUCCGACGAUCAGUCCUGUGCUACACAUCGUAUGUACCGAAUCGGGUUUUUGGGAAAAAGGGUUUGGGAAAGUAUUAUGUUACGCCGUUCGGAUCUGCACUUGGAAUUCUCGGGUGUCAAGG`, the log2 enrichment was 0.0498.
The log2 enrichment of `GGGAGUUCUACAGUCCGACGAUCAAGUCCUGUGCUACACAUCGUAUGUACCGAAUCGGGAAAAAAAGGGAGGGUUUGGGAAAGUAUUAUGUUACGCCGUUCGGAUCUGCACUUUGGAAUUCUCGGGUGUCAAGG` is reported as 0.572.
`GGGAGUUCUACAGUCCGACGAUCGUCCUGUGCUACACAUCGUAUGUACCGAAUCGGGUUUUUUUGGGAAAAAGGGAAAGGGAAAGUAUUAUGUUACGCCGUUCGGAUCUGCACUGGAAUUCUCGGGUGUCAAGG` has a log2 enrichment of -0.403.
The log2 enrichment of `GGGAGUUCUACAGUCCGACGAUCCAAGUCCUGUGCUACACAUCGUAUGUACCGAAUCGGAAAAGGGAAAAGGGAAAAGGAAAGUAUUAUGUUACGCCGUUCGGAUCUGCACUUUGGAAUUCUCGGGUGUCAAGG` is reported as -0.713.
`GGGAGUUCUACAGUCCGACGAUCUCCUGUGCUACACAUCGUAUGUACCGAAUCAAACCCCCAAACCCCCCCAAAUUUUUAAAAAAGUAUUAUGUUACGCCGUUCGGAUCUGCAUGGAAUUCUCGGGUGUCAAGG` has a log2 enrichment of 0.0387.
`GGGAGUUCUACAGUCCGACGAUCUGGCCCUGGUGGCAUGCGGGGAGGAAUAGGUGGCCUCAUGGAUCGUGGUGGUCCCGGUGGAAUGUUCAGAGGUGGCCGUGGUGGAGACAGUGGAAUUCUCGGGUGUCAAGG` has a log2 enrichment of -0.018.
`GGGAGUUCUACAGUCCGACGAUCGUCCUGUGCUACACAUCGUAUGUACCGAAUCGGCCCCCGGGGCCCCCGGGCCCCCGGGAAAGUAUUAUGUUACGCCGUUCGGAUCUGCACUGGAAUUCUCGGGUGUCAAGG` has a log2 enrichment of -0.276.
For `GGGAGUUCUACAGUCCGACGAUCGCAGGAAGUAAAAACAAAUGGAAAUGCUUCGGAUAGUGGCAGGGGUGGGGGUUGCUAACGAAAGGGUGGGAUGGGAGUGGGUAAAGAGUUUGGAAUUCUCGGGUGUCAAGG`, the log2 enrichment was 0.24.
`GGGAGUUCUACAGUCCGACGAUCAGUCCUGUGCUACACAUCGUAUGUACCGAAUCGGGAAAAAGGGAAAAAAAGGGUGGGAAAGUAUUAUGUUACGCCGUUCGGAUCUGCACUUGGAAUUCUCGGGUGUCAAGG` gave a log2 enrichment of 0.422.
With `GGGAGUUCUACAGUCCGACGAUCGUCCUGUGCUACACAUCGUAUGUACCGAAUCAAAUUUUUAAACCCAAACCCCCCCAAAAAAGUAUUAUGUUACGCCGUUCGGAUCUGCACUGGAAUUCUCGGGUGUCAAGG` the log2 enrichment was -0.196.
The log2 enrichment of `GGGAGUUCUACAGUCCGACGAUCGUCCUGUGCUACACAUCGUAUGUACCGAAUCGGGAAAGGGAAAAAGGGUUUUUUUGGGAAAGUAUUAUGUUACGCCGUUCGGAUCUGCACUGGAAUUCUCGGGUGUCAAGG` is reported as -0.323.
With `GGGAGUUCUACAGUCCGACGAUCAGUCCUGUGCUACACAUCGUAUGUACCGAAUCGGGAGGGUUUUUGGGUUUUUUUGGGAAAGUAUUAUGUUACGCCGUUCGGAUCUGCACUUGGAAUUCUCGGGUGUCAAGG` the log2 enrichment was 0.221.
